Measured values from different studies.
Numbered parts are unrelated; each lists some results of a single study. Substitutions count along the parent as printed.

Sample 1 — method: protein-binding microarray; molecule type: double-stranded DNA, one strand shown; matrix: in vitro; tested at: not given; reading: higher = stronger binding
Target: Max-binding protein MNT, bHLH-zipper, MAX partner unstated (MNT, Homo sapiens, UniProt Q99583, residues 220-300)
Setting: k-mer, scored over probes, only values ≥0.25
Target sequence (chain): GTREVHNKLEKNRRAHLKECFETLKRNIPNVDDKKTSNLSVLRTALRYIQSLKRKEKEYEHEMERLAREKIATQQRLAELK
`GGGTGGGA` gave an E-score of 0.396.
With `CATGGACC` the E-score was 0.259.
With `ATCGCGTG` the E-score was 0.402.
The E-score of `ACGCGGAA` is reported as 0.285.
With `AGTCACGA` the E-score was 0.334.
With `ACGCATGG` the E-score was 0.442.
The E-score of `CAACACGC` is reported as 0.41.
`CTGTACAC` gave an E-score of 0.263.
`ACGAGGGG` gave an E-score of 0.334.
`GCACGAGA` has an E-score of 0.381.
`CCCCGTGC` has an E-score of 0.393.
`ATGCACGC` has an E-score of 0.421.
The E-score of `ACGAGGGA` is reported as 0.351.
With `AGTCACGC` the E-score was 0.431.
`ATGGGTGG` has an E-score of 0.301.
For `AACGTGCT`, the E-score was 0.448.
With `ACCACGAT` the E-score was 0.278.
For `CGCACCCA`, the E-score was 0.301.
For `GCGTGACC`, the E-score was 0.4.
`CGTGTTAA` gave an E-score of 0.325.
`ACAGGGGC` gave an E-score of 0.3.
With `AAAGCATG` the E-score was 0.423.

Sample 2 — method: protein binding microarray; molecule type: double-stranded DNA, one strand shown; matrix: in vitro; tested at: not given; relative to: not given; reading: higher = stronger binding
Target: Histone acetyltransferase KAT6A, both winged helices, GST fusion (KAT6A, Homo sapiens, UniProt Q92794, residues 1-181)
Setting: 8-mer, flanks averaged, mean of 2 arrays, mostly near background
Construct (chain): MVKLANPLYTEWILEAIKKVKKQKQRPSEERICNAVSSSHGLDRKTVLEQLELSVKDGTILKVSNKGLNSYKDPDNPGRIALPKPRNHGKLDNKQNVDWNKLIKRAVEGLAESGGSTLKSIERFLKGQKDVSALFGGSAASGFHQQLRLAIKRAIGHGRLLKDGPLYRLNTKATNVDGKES
`CTGTACGA` gave an E-score of -0.172.
For `CAACTGGA`, the E-score was -0.165.
`GACGAAGA` has an E-score of -0.0434.
The E-score of `CCTGAACC` is reported as -0.212.
`GGCCGACC` gave an E-score of 0.182.
`AAGTCACA` has an E-score of -0.133.
For `CCGGAAGG`, the E-score was 0.0121.
With `GTAAAACA` the E-score was -0.057.
For `ACACTGAT`, the E-score was -0.133.
For `CATCAAAG`, the E-score was -0.124.
The E-score of `GGCTATCA` is reported as 0.0622.
With `AACTCTTG` the E-score was -0.376.
The E-score of `ACTAGGTA` is reported as -0.157.

Sample 3 — target: CCNA1, cyclin fold, Cln2 fusion (human); method: yeast growth competition, sequencing; matrix: yeast; setting: weak parent motif; relative to: not given; reading: higher = stronger binding
Starting sequence: ORC1 docking peptide (human); PRARKRLELGNLG
Under “normalised enrichment score”, `R4L` is recorded as 0.627.
`R6K`: “normalised enrichment score” 0.492.
For `L9G`, “normalised enrichment score” read -0.000947.
`G10T`: “normalised enrichment score” 0.231.
Under “normalised enrichment score”, `A3V` is recorded as 0.205.
`L9K` — result for “normalised enrichment score”: 0.581.
Under “normalised enrichment score”, `R2V` is recorded as 0.316.
For `L7Y`, “normalised enrichment score” read 0.32.
`L12A`: “normalised enrichment score” 0.419.
Under “normalised enrichment score”, `G13D` is recorded as 0.837.
For `N11Y`, “normalised enrichment score” read 0.692.
For `N11F`, “normalised enrichment score” read 0.23.
`N11W` — result for “normalised enrichment score”: 0.264.
`R6V` — result for “normalised enrichment score”: 0.358.
Under “normalised enrichment score”, `G13H` is recorded as 0.489.

Other studies, line by line
The fold induction of `PhoQ, residues 284 288 289 292 302 303 SMYGEC` is reported as 13.9 (PhoP, residues 12 14 15 18 19 LWHVM (Escherichia coli, UniProt P23836); Sort-seq, refers to: YFP reporter; E. coli; PhoQ-PhoP variant library, together with: 10 µM Mg2+; relative to: high Mg2+ state, higher = stronger signaling).

A few entries again (sample 1):
The E-score of `ACGAGGGA` is reported as 0.351.
With `AGTCACGC` the E-score was 0.431.
`ATGGGTGG` has an E-score of 0.301.
For `AACGTGCT`, the E-score was 0.448.
With `ACCACGAT` the E-score was 0.278.
For `CGCACCCA`, the E-score was 0.301.
